# Measured values from different studies.
# Numbers after ± are the reported error.
# Method: steady-state kinetics
# B1: Saccharopine reductase C154S (Saccharomyces cerevisiae, UniProt P38999); chain MGKNVLLLGSGFVAQPVIDTLAANDDINVTVACRTLANAQALAKPSGSKAISLDVTDDSALDKVLADNDVVISLIPYTFHPNVVKSAIRTKTDVVTSSYISPALRELEPEIVKAGITVMNEIGLDPGIDHLYAVKTIDEVHRAGGKLKSFLSYSGGLPAPEDSDNPLGYKFSWSSRGVLLALRNSAKYWKDGKIETVSSEDLMATAKPYFIYPGYAFVCYPNRDSTLFKDLYHIPEAETVIRGTLRYQGFPEFVKALVDMGMLKDDANEIFSKPIAWNEALKQYLGAKSTSKEDLIASIDSKATWKDDEDRERILSGFAWLGLFSDAKITPRGNALDTLCARLEELMQYEDNERDMVVLQHKFGIEWADGTTETRTSTLVDYGKVGGYSSMAATVGYPVAIATKFVLDGTIKGPGLLAPYSPEINDPIMKELKDKYGIYLKEKTVA
# B2: Nudt8 (Mus musculus, UniProt Q9CR24); chain MLPDGLSAEDEQRCRQLLARTTARLRSRPAAAAVLVPLCLVRGVPALLYTLRSSRLVGRHKGEVSFPGGKCDPDDQDVIHTALRETQEELGLEVPKEHVWGVLQPVYDREKATIVPVLANVGPLDLQSLRPNLEEVDEVFEMSLAHLLQTQNQGYTHFCQGGHFSYTLPVFLHGPHRVWGLTAVITELTLKLLAPGFYQPSLAVPELPRG
# B3: protein (Danio rerio, UniProt F1QXD3); chain MALSRALRCCQRIFSWIPVIIISSVVLWSYYAYVFELCFVTLSNNLERVTYLLIFHVCFIMFCWTYWKAIFTPPSTPTKKFHLSYTDKERYEMEERPEVQKQILVDIAKKLPIFTRAQSGAIRFCDRCQVIKPDRCHHCSVCETCVLKMDHHCPWVNNCVGFSNYKFFLLFLSYSMIYCVFIASTVFQYFLKFWVGDLPNGPAKFHVLFLLFVALMFFVSLMFLFGYHCWLVAKNRSTLEAFSPPVFQNGPDRNGFNVGLSKNLRQVFGEHKKLWFIPVFTSQGDGHYFPLRTLRESENPLLANEEKWVEDGGSDEESADENGSSLLIRTES
# B4: protein (Actinidia deliciosa, UniProt Q32W37); chain QLPCAQALPIPTVTTTTSIEPPHVTRRSANYHPSIWGDHFLAYSSDAMEEEVINMEQQQRLHHLKQKVRKMLEAAAEQSSQMLNLVDKIQRLGVSYHFETEIETALRHIYKTCDYHFDDLHTAALSFRLLRQQGYPVSCDMFDKFKNSKGEFQESIISDVQGMLSLYEATCLRIHGEDILDEALAFTITQLRSALPNLSTPFKEQIIHALNQPIHKGLTRLNARSHILFFEQNDCHSKDLLNFAKLDFNLLQKLHQRELCEITRWWKDLNFAKTLPFARDRMVECYFWILGVYFEPQYLLARRMLTKVIAMISIIDDIYDVYGTLEELVLFTDAIERWEISALDQLPEYMKLCYQALLDVYSMIDEEMAKQGRSYCVDYAKSSMKILVRAYFEEAKWFHQGYVPTMEEYMQVALVTAGYKMLATSSFVGMGDLATKEAFDWVSNDPLIVQAASVIGRLKDDIVGHKFEQKRGHVASAVECYSKQHGTTEEEAIIELDKQVTHSWKDINAECLCPIKVPMPLLARVLNLARVLYVIYQDEDGYTHPGTKVENFVTSVLIDSMPIN
# B5: LYS1 C205S/K99M (Saccharomyces cerevisiae, UniProt P38998); chain MAAVTLHLRAETKPLEARAALTPTTVKKLIAKGFKIYVEDSPQSTFNINEYRQAGAIIVPAGSWKTAPRDRIIIGLKEMPETDTFPLVHEHIQFAHCYMDQAGWQNVLMRFIKGHGTLYDLEFLENDQGRRVAAFGFYAGFAGAALGVRDWAFKQTHSDDEDLPAVSPYPNEKALVKDVTKDYKEALATGARKPTVLIIGALGRSGSGAIDLLHKVGIPDANILKWDIKETSRGGPFDEIPQADIFINCIYLSKPIAPFTNMEKLNNPNRRLRTVVDVSADTTNPHNPIPIYTVATVFNKPTVLVPTTAGPKLSVISIDHLPSLLPREASEFFSHDLLPSLELLPQRKTAPVWVRAKKLFDRHCARVKRSSRL
# B6: MSS116 T307A (Saccharomyces cerevisiae, UniProt P15424); chain LYNDGNRDQRNFGRNQRNNNSNRYRNSRFNSRPRTRSREDDDEVHFDKTTFSKLIHVPKEDNSKEVTLDSLLEEGVLDKEIHKAITRMEFPGLTPVQQKTIKPILSSEDHDVIARAKTGTGKTFAFLIPIFQHLINTKFDSQYMVKAVIVAPTRDLALQIEAEVKKIHDMNYGLKKYACVSLVGGTDFRAAMNKMNKLRPNIVIATPGRLIDVLEKYSNKFFRFVDYKVLDEADRLLEIGFRDDLETISGILNEKNSKSADNIKTLLFSAALDDKVQKLANNIMNKKECLFLDTVDKNEPEAHERIDQSVVISEKFANSIFAAVEHIKKQIKERDSNYKAIIFAPTVKFTSFLCSILKNEFKKDLPILEFHGKITQNKRTSLVKRFKKDESGILVCTDVGARGMDFPNVHEVLQIGVPSELANYIHRIGRTARSGKEGSSVLFICKDELPFVRELEDAKNIVIAKQEKYEPSEEIKSEVLEAVTEEPEDISDIVISLISSYRSCIKEYRFSERRILPEIASTYGVLLNDPQLKIPVSRRFLDKLGLSRSPIGKAMFEIRDYSSRDGNNKSYDYDDDSEISFRGNKNYNNRSQNRDYDDEPFRRSNNNRRSFSRSNDKNNYSSRNSNIY
# B7: Tcur_2987 Y332L (Thermomonospora curvata, UniProt D1A807); chain ACSEERAAGARPSATQTTGTATEPFHGPHQAGIATPPQAHAVFLGLDLRKGTGRKELGRLMRLLTDDARRLTQGRPALADPEPDLAPLPSRLTFTFGFGPGLFKAAGLEKQRPEGLRPLPPFKVDRLEDRWSGGDLLVQICCDDPITLAHALRMTVKDARAFTRVRWVQRGFRRSPGVQSSGATQRNLMGQLDGTVNPVPGTADFDQAVWVQDGPEWLRGGTTLVLRRIRMELEKWDEADPAGKEFAVGRRLTSGAPLTGRHEHDEPDFDAVDSAGFPVIAENAHIRLAHVDSPRLRMLRRPYNLDEGLTADGRSDAGLLFAAYQADIDRQFIPVQRRLDEGGDLLNLWTTPIGSAVFAIPPGCDENGWIGQGLLG
# B8: TylM1 H123A (Streptomyces fradiae, UniProt P95748); chain MAHSSATAGPQADYSGEIAELYDLVHQGKGKDYHREAADLAALVRRHSPKAASLLDVACGTGMHLRHLADSFGTVEGLELSADMLAIARRRNPDAVLHHGDMRDFSLGRRFSAVTCMFSSIGALAGQAELDAALERFAAHVLPDGVVVVEPWWFPENFTPGYVAAGTVEAGGTTVTRVSHSSREGEATRIEVHYLVAGPDRGITHHEESHRITLFTREQYERAFTAAGLSVEFMPGGPSGRGLFTGLPGAKGETR
# B9: RbgA (Bacillus subtilis, UniProt O31743); chain MTIQWFPGHMAKARREVTEKLKLIDIVYELVDARIPMSSRNPMIEDILKNKPRIMLLNKADKADAAVTQQWKEHFENQGIRSLSINSVNGQGLNQIVPASKEILQEKFDRMRAKGVKPRAIRALIIGIPNVGKSTLINRLAKKNIAKTGDRPGITTSQQWVKVGKELELLDTPGILWPKFEDELVGLRLAVTGAIKDSIINLQDVAVFGLRFLEEHYPERLKERYGLDEIPEDIAELFDAIGEKRGCLMSGGLINYDKTTEVIIRDIRTEKFGRLSFEQPTM
# B10: enzyme A178R/D177A/P184R (Levilactobacillus brevis, UniProt Q03Q85); chain MKVTVVGCTHAGTFAIKQILAEHPDAEVTVYERNDVISFLSCGIALYLGGKVADPQGLFYSSPEELQKLGANVQMNHNVLAIDPDQKTVTVEDLTNHAQTTESYDKLVMTSGSWPIVPKIPGIDSDRVKLCKNWAHAQALIEDAKEAKRITVIGAGYIGAELAEAYSTTGHDVTLIARMARVMRKYFDADFTDVIEQDYRDHGVQLALGETVESFTDSATGLTIKTDKNSYETDLAILCIGFRPNTDLLKGKVDMAPNGAIITDDYMRSSNPDIFAAGDSAAVHYNPTHQNAYIPLATNAVRQGILVGKNLVKPTVKYMGTQSSSGLALYDRTIVSTGLTLAAAKQQGLNAEQVIVEDNYRPEFMPSTEPVLMSLVFDPDTHRILGGALMSKYDVSQSANTLSVCIQNENTIDDLAMVDMLFQPNFDRPFNYLNILAQAAQAKVAQSVNA
# UniProt P22304, sequence (whole entry, looked up): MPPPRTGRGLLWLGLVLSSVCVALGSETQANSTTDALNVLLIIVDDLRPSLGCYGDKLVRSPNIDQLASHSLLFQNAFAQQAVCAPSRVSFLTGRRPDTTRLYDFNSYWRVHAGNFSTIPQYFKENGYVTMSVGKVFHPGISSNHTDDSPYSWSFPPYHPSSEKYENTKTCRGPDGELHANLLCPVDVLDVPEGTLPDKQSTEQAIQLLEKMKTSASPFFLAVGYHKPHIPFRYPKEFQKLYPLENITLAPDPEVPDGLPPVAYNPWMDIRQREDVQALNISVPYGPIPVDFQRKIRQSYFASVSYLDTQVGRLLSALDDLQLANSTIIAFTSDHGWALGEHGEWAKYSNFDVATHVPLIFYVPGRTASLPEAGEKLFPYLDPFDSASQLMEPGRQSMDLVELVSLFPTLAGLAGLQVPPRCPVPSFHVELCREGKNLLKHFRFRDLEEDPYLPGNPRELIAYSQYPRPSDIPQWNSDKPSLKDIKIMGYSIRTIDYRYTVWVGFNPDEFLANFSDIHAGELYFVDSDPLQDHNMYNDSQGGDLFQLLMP
Substance,substrate,setting,kcat
"IDS (Homo sapiens, UniProt P22304)",Cc1cc(=O)oc2cc(O[C@@H]3O[C@@H](C(=O)O)[C@@H](O)[C@H](O)[C@H]3OS(=O)(=O)O)ccc12,pH 5.5,112 ± 14.7 s⁻¹
B1 (Saccharopine reductase C154S),NC(=O)c1ccc[n+]([C@@H]2O[C@H](COP(=O)(O)OP(=O)(O)OC[C@H]3O[C@@H](n4cnc5c(N)ncnc54)[C@H](OP(=O)(O)O)[C@@H]3O)[C@@H](O)[C@H]2O)c1,"pH 9, 25 °C, together with: saccharopine",0.12 ± 0.03 s⁻¹
B2 (Nudt8),CC(C)(COP(=O)(O)OP(=O)(O)OC[C@H]1O[C@@H](n2cnc3c(N)ncnc32)[C@H](O)[C@@H]1OP(=O)(O)O)[C@@H](O)C(=O)NCCC(=O)NCCSC(=O)CC(=O)O,"pH 8.5, together with: 2 mM Mn2+",3.07 ± 0.317 s⁻¹
B3 (protein),CCCCCCCCCCCCCCCC(=O)SCCNC(=O)CCNC(=O)[C@H](O)C(C)(C)COP(=O)(O)OP(=O)(O)OC[C@H]1O[C@@H](n2cnc3c(N)ncnc32)[C@H](O)[C@@H]1OP(=O)(O)O,"pH 6.8, 30 °C",0.243 ± 0.0133 s⁻¹
B4 (protein),CC(C)=CCC/C(C)=C/CC/C(C)=C/CO[P@@](=O)(O)OP(=O)(O)O,"pH 7.5, together with: FPP 1-100 µM",0.017 ± 0.001 s⁻¹
protein (UniProt M4ZR24),Cc1cn([C@H]2C[C@H](O)[C@@H](CN)O2)c(=O)[nH]c1=O,"phosphorolysis, single substrate, together with: phosphate",0.0517 ± 0.005 s⁻¹
B5 (LYS1 C205S/K99M),NC(=O)C1=CN([C@@H]2O[C@H](COP(=O)(O)OP(=O)(O)OC[C@H]3O[C@@H](n4cnc5c(N)ncnc54)[C@H](O)[C@@H]3O)[C@@H](O)[C@H]2O)C=CC1,"pH 7.2, 25 °C, together with: Lys and α-Kg",68 ± 4 s⁻¹
"alanine aminopeptidase (Neisseria meningitidis, UniProt Q9JYV4)",NC(=O)Cc1cc(=O)oc2cc(NC(=O)[C@@H](N)CC(=O)OCc3ccccc3)ccc12,"pH 7.5, 37 °C",3.64 ± 0.05 s⁻¹
"protein (Zea mays, UniProt A0A2H4PMI3)",O=CCCCC(=O)O,"pH 7.5, 30 °C, substrate inhibition, together with: NAD+ 3.0 mM",1.9 ± 0.2 s⁻¹
B6 (MSS116 T307A),Nc1ncnc2c1ncn2[C@@H]1O[C@H](COP(=O)(O)OP(=O)(O)OP(=O)(O)O)[C@@H](O)[C@H]1O,"pH 7.5, 37 °C, together with: ATP",0.0128 ± 0.00433 s⁻¹
"protein (Pseudoalteromonas luteoviolacea, UniProt A0A161XU12)",NCC(=O)O,"pH 7.5, 30 °C, positive cooperativity",6 ± 0.2 s⁻¹
"protein (Cecembia lonarensis, UniProt K1KZY4)",O=[N+]([O-])c1ccc(O[C@@H]2OC[C@H](O)[C@@H](O)[C@@H]2O)cc1,"pH 5.5, 35 °C, substrate inhibition",0.94 ± 0.23 s⁻¹
"PGDH1 (Oryza sativa, UniProt B7F6I8)",O=C(O)[C@H](O)COP(=O)(O)O,"pH 9, 25 °C, NaCl 0.1 M, apparent, together with: NAD+",16.5 ± 0.2 s⁻¹
B7 (Tcur_2987 Y332L),Nc1c(S(=O)(=O)O)cc(Nc2cccc(S(=O)(=O)CCOS(=O)(=O)O)c2)c2c1C(=O)c1ccccc1C2=O,"pH 3, sigmoidal kinetics, together with: H2O2 1 mM",97 ± 1 s⁻¹
B8 (TylM1 H123A),Cc1cn([C@H]2C[C@H](O)[C@@H](COP(=O)(O)OP(=O)(O)O[C@H]3O[C@H](C)[C@@H](O)[C@H](N)[C@H]3O)O2)c(=O)[nH]c1=O,"25 °C, together with: SAM",0.046 ± 0.001 s⁻¹
B9 (RbgA),Nc1nc2c(ncn2[C@@H]2O[C@H](COP(=O)(O)OP(=O)(O)OP(=O)(O)O)[C@@H](O)[C@H]2O)c(=O)[nH]1,"pH 7.5, 37 °C, KCl 200 mM, free enzyme, apparent, together with: GTP 0-1 mM",0.00303 ± 8.33e-05 s⁻¹
B10 (enzyme A178R/D177A/P184R),NC(=O)C1=CN([C@@H]2O[C@H](COP(=O)(O)OP(=O)(O)OC[C@H]3O[C@@H](n4cnc5c(N)ncnc54)[C@H](OP(=O)(O)O)[C@@H]3O)[C@@H](O)[C@H]2O)C=CC1,"pH 7.5, 37 °C, per site",178 ± 67 s⁻¹

# Some of these lines once more:
Substance,substrate,setting,kcat
B5 (LYS1 C205S/K99M),NC(=O)C1=CN([C@@H]2O[C@H](COP(=O)(O)OP(=O)(O)OC[C@H]3O[C@@H](n4cnc5c(N)ncnc54)[C@H](O)[C@@H]3O)[C@@H](O)[C@H]2O)C=CC1,"pH 7.2, 25 °C, together with: Lys and α-Kg",68 ± 4 s⁻¹
"IDS (Homo sapiens, UniProt P22304)",Cc1cc(=O)oc2cc(O[C@@H]3O[C@@H](C(=O)O)[C@@H](O)[C@H](O)[C@H]3OS(=O)(=O)O)ccc12,pH 5.5,112 ± 14.7 s⁻¹
